Measured values pooled from the literature.
Each line is one published result; not all experiments were run side by side. Values joined by “and” are separate records of one study, mostly repeats; a detail may differ. Numbers after ± are the reported error.
NECTIN4: NECTIN4 32-349 (Homo sapiens, UniProt Q96NY8)
Chain of UniProt Q96NY8 (whole entry, looked up): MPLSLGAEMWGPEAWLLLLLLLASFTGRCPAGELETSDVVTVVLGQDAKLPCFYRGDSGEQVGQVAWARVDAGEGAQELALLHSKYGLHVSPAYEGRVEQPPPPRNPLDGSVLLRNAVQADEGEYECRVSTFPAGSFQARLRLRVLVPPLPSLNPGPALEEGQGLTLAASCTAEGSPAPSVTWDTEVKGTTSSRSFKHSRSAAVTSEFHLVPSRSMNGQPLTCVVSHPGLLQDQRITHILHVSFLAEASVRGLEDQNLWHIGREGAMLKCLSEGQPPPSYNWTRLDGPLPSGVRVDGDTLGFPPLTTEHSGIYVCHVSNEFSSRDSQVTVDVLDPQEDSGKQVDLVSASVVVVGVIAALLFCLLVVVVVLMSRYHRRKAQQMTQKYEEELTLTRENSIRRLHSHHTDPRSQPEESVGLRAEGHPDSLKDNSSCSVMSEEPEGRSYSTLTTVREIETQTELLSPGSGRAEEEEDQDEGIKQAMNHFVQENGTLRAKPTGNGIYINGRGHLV
B1: ALAS2 54-587 (Homo sapiens, UniProt P22557); chain KATKAGGDSPSWAKGHCPFMLSELQDGKSKIVQKAAPEVQEDVKAFKTDLPSSLVSVSLRKPFSGPQEQEQISGKVTHLIQNNMPGNYVFSYDQFFRDKIMEKKQDHTYRVFKTVNRWADAYPFAQHFSEASVASKDVSVWCSNDYLGMSRHPQVLQATQETLQRHGAGAGGTRNISGTSKFHVELEQELAELHQKDSALLFSSCFVANDSTLFTLAKILPGCEIYSDAGNHASMIQGIRNSGAAKFVFRHNDPDHLKKLLEKSNPKIPKIVAFETVHSMDGAICPLEELCDVSHQYGALTFVDEVHAVGLYGSRGAGIGERDGIMHKIDIISGTLGKAFGCVGGYIASTRDLVDMVRSYAAGFIFTTSLPPMVLSGALESVRLLKGEEGQALRRAHQRNVKHMRQLLMDRGLPVIPCPSHIIPIRVGNAALNSKLCDLLLSKHGIYVQAINYPTVPRGEELLRLAPSPHHSPQMMEDFVEKLLLAWTAVGLPLQDVSVAACNFCRRPVHFELMSEWERSYFGNMGPQYVTTYA
B2: ITGAV/ITGB3 ectodomain, soluble, clasped; chain 1 FNLDVDSPAEYSGPEGSYFGFAVDFFVPSASSRMFLLVGAPKANTTQPGIVEGGQVLKCDWSSTRRCQPIEFDATGNRDYAKDDPLEFKSHQWFGASVRSKQDKILACAPLYHWRTEMKQEREPVGTCFLQDGTKTVEYAPCRSQDIDADGQGFCQGGFSIDFTKADRVLLGGPGSFYWQGQLISDQVAEIVSKYDPNVYSIKYNNQLATRTAQAIFDDSYLGYSVAVGDFNGDGIDDFVSGVPRAARTLGMVYIYDGKNMSSLYNFTGEQMAAYFGFSVAATDINGDDYADVFIGAPLFMDRGSDGKLQEVGQVSVSLQRASGDFQTTKLNGFEVFARFGSAIAPLGDLDQDGFNDIAIAAPYGGEDKKGIVYIFNGRSTGLNAVPSQILEGQWAARSMPPSFGYSMKGATDIDKNGYPDLIVGAFGVDRAILYRARPVITVNAGLEVYPSILNQDNKTCSLPGTALKVSCFNVRFCLKADGKGVLPRKLNFQVELLLDKLKQKGAIRRALFLYSRSPSHSKNMTISRGGLMQCEELIAYLRDESEFRDKLTPITIFMEYRLDYRTAADTTGLQPILNQFTPANISRQAHILLDCGEDNVCKPKLEVSVDSDQKKIYIGDDNPLTLIVKAQNQGEGAYEAELIVSIPLQADFIGVVRNNEALARLSCAFKTENQTRQVVCDLGNPMKAGTQLLAGLRFSVHQQSEMDTSVKFDLQIQSSNLFDKVSPVVSHKVDLAVLAAVEIRGVSSPDHVFLPIPNWEHKENPETEEDVGPVVQHIYELRNNGPSSFSKAMLHLQWPYKYNNNTLLYILHYDIDGPMNCTSDMEINPLRIKISSLQTTEKNDTVAGQGERDHLITKRDLALSEGDIHTLGCGVAQCLKIVCQVGRLDRGKSAILYVKSLLWTETFMNKENQNHSYSLKSSASFNVIEFPYKNLPIEDITNSTLVTTNVTWGIQPAPMPV; chain 2 GPNICTTRGVSSCQQCLAVSPMCAWCSDEALPLGSPRCDLKENLLKDNCAPESIEFPVSEARVLEDRPLSDKGSGDSSQVTQVSPQRIALRLRPDDSKNFSIQVRQVEDYPVDIYYLMDLSYSMKDDLWSIQNLGTKLATQMRKLTSNLRIGFGAFVDKPVSPYMYISPPEALENPCYDMKTTCLPMFGYKHVLTLTDQVTRFNEEVKKQSVSRNRDAPEGGFDAIMQATVCDEKIGWRNDASHLLVFTTDAKTHIALDGRLAGIVQPNDGQCHVGSDNHYSASTTMDYPSLGLMTEKLSQKNINLIFAVTENVVNLYQNYSELIPGTTVGVLSMDSSNVLQLIVDAYGKIRSKVELEVRDLPEELSLSFNATCLNNEVIPGLKSCMGLKIGDTVSFSIEAKVRGCPQEKEKSFTIKPVGFKDSLIVQVTFDCDCACQAQAEPNSHRCNNGNGTFECGVCRCGPGWLGSQCECSEEDYRPSQQDECSPREGQPVCSQRGECLCGQCVCHSSDFGKITGKYCECDDFSCVRYKGEMCSGHGQCSCGDCLCDSDWTGYYCNCTTRTDTCMSSNGLLCSGRGKCECGSCVCIQPGSYGDTCEKCPTCPDACTFKKECVECKKFDRGALHDENTCNRYCRDEIESVKELKDTGKDAVNCTYKNEDDCVVRFQYYEDSSGKSILYVVEEPECPKGPD
B3: TIMP1 E156V/L152P/L133R/E67W/M66W/L34G (Homo sapiens, UniProt P01033); chain CTCVPPHPQTAFCNSDLVIRAKFVGTPEVNQTTGYQRYEIKMTKMYKGFQALGDAADIRFVYTPAWWSVCGYFHRSHNRSEEFLIAGKLQDGLLHITTCSFVAPWNSLSLAQRRGFTKTYTVGCEECTVFPCRSIPCKLQSGTHCLWTDQLPQGSVKGFQSRHLACLPREPGLCTWQSLRSQIA
B4: NOTCH1 1758-2126 (Homo sapiens, UniProt P46531); sequence looked up; chain RKRRRQHGQLWFPEGFKVSEASKKKRREPLGEDSVGLKPLKNASDGALMDDNQNEWGDEDLETKKFRFEEPVVLPDLDDQTDHRQWTQQHLDAADLRMSAMAPTPPQGEVDADCMDVNVRGPDGFTPLMIASCSGGGLETGNSEEEEDAPAVISDFIYQGASLHNQTDRTGETALHLAARYSRSDAAKRLLEASADANIQDNMGRTPLHAAVSADAQGVFQILIRNRATDLDARMHDGTTPLILAARLAVEGMLEDLINSHADVNAVDDLGKSALHWAAAVNNVDAAVVLLKNGANKDMQNNREETPLFLAAREGSYETAKVLLDHFANRDITDHMDRLPRDIAQERMHHDIVRLLDEYNLVRSPQLHG
B5: gajB 1-494 (Bacillus cereus, UniProt J8HQ06); chain MSREQIIKDGGNILVTAGAGSGKTTILVSKIEADLKENKTHYSIAAVTFTNKAAKEIEGRLGYSSRGNFIGTNDGFVESEIIRPFIKDAFGNDYPDNFTAEYFDNQFASYDKGLQVLKYQNILGTYSNPKKNFKFQLALDILKKSLVARQYIFSKYFKIFIDEYQDSDKDMHNLFMYLKDQLKIKLFIVGDPKQSIYIWRGAEPENFNGLIENSTDFNKYHLTSNFRCCQDIQNYSNLFNEETRSLIKEKNEVQNVISIADDMPISDILLKLTEEKQVLNIEAELVILVRRRNQAIEIMKELNEEGFNFIFIPQTPLDRATPNATLLKEVIKYVKNDRYSIYDLAAEIVGNLSSREIKEIQKIINELLVPNINQVLINQVLINLFAKLEITLDTREITAFTEVMMTNEFDIAFDTNEYLHKIFTVHSAKGLEFNQVIITASDYNVHYNRDTNEHYVATTRAKDKLIVIMDNKKYSDYIETLMKELKIKNIIKSI
B6: DLL4 27-400 G28S/F107L/I143F/H194Y/L206P/N257P/T271L/F280Y/S301R/Q305P (Homo sapiens, UniProt Q9NR61); chain SSVFQLQLQEFINERGVLASGRPCEPGCRTFFRVCLKHFQAVVSPGPCTFGTVSTPVLGTNSFAVRDDSSGGGRNPLQLPLNFTWPGTFSLIIEAWHAPGDDLRPEALPPDALISKFAIQGSLAVGQNWLLDEQTSTLTRLRYSYRVICSDNYYGDNCSRLCKKRNDYFGHYVCQPDGNPSCLPGWTGEYCQQPICLSGCHEQNGYCSKPAECLCRPGWQGRLCNECIPHPGCRHGTCSTPWQCLCDEGWGGLYCDQDLNYCTHHSPCKNGATCRNSGPRSYTCTCRPGYTGVDCELELSECDSNPCRNGGSCKDQEDGYHCLCPPGYYGLHCEHSTLSCADSPCFNGGSCRERNQGANYACECPPNFTGSNCE
B7: TNFSF4 51-183 (Homo sapiens, UniProt P23510); sequence looked up; chain QVSHRYPRIQSIKVQFTEYKKEKGFILTSQKEDEIMKVQNNSVIINCDGFYLISLKGYFSQEVNISLHYQKDEEPLFQLKKVRSVNSLMVASLTYKDKVYLNVTTDNTSLDDFHVNGGELILIHQNPGEFCVL
Chain of UniProt P20936 (whole entry, unmodified, looked up): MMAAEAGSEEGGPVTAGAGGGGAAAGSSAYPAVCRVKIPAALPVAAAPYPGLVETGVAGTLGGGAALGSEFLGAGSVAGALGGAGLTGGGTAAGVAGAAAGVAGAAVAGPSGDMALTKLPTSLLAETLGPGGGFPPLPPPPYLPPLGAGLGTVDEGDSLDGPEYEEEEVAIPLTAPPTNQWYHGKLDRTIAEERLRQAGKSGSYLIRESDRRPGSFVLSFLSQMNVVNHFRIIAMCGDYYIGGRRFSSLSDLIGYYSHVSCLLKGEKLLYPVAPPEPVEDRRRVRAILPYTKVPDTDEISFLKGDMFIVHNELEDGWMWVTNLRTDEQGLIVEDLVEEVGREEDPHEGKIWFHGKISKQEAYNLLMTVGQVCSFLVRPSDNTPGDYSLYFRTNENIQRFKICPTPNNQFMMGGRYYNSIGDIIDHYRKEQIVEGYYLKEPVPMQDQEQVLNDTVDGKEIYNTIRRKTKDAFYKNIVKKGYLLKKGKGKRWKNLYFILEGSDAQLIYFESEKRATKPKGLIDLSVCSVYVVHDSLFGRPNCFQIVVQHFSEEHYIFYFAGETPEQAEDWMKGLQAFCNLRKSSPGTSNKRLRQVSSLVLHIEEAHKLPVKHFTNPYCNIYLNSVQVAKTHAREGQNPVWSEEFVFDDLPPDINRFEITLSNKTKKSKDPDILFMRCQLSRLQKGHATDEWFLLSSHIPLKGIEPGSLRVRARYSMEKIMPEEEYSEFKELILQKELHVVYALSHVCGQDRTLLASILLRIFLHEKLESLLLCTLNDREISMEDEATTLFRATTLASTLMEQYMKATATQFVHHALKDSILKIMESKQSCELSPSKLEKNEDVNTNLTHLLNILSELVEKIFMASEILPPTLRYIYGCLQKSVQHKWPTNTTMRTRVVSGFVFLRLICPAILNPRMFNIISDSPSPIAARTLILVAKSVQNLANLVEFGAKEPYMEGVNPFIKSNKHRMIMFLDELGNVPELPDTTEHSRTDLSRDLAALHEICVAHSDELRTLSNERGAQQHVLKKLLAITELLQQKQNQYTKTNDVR
Chain of UniProt P00736 (whole entry, looked up): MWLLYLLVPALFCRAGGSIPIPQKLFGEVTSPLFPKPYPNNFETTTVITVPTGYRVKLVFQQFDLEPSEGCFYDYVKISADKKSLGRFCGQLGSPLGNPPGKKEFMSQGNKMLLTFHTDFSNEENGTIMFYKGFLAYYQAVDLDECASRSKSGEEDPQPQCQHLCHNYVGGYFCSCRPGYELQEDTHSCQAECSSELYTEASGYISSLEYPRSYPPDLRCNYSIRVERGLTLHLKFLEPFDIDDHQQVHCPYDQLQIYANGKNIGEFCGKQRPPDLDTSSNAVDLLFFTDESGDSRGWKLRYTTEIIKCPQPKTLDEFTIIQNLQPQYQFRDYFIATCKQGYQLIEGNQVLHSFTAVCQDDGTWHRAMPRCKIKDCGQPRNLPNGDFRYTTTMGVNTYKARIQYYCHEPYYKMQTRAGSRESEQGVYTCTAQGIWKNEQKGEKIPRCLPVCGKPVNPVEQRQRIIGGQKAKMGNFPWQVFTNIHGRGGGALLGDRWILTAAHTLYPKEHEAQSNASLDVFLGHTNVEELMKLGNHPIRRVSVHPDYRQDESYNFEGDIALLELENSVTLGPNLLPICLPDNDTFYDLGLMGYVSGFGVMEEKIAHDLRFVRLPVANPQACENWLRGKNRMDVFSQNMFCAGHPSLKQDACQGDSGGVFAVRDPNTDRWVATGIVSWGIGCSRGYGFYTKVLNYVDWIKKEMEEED
Chain of UniProt Q14137 (whole entry, looked up): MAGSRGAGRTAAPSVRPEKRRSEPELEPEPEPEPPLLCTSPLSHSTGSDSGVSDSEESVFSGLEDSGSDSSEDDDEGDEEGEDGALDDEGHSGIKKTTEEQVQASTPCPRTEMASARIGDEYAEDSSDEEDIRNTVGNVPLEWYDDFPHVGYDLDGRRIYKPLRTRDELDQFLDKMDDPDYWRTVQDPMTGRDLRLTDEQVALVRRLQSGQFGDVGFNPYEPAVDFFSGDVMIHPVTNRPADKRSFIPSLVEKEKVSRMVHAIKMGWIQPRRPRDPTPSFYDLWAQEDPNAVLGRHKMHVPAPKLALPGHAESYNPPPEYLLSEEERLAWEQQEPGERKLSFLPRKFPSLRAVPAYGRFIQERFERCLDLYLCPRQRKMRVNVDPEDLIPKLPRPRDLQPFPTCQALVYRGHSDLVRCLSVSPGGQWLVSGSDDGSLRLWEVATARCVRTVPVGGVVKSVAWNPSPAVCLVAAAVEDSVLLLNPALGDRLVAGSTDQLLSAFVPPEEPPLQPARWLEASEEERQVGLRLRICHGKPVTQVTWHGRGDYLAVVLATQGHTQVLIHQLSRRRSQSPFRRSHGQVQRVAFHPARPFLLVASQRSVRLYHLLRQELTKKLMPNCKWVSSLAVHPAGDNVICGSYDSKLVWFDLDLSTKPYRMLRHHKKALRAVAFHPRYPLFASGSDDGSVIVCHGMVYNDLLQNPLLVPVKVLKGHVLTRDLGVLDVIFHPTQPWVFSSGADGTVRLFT
Chain of UniProt Q00341 (whole entry, looked up): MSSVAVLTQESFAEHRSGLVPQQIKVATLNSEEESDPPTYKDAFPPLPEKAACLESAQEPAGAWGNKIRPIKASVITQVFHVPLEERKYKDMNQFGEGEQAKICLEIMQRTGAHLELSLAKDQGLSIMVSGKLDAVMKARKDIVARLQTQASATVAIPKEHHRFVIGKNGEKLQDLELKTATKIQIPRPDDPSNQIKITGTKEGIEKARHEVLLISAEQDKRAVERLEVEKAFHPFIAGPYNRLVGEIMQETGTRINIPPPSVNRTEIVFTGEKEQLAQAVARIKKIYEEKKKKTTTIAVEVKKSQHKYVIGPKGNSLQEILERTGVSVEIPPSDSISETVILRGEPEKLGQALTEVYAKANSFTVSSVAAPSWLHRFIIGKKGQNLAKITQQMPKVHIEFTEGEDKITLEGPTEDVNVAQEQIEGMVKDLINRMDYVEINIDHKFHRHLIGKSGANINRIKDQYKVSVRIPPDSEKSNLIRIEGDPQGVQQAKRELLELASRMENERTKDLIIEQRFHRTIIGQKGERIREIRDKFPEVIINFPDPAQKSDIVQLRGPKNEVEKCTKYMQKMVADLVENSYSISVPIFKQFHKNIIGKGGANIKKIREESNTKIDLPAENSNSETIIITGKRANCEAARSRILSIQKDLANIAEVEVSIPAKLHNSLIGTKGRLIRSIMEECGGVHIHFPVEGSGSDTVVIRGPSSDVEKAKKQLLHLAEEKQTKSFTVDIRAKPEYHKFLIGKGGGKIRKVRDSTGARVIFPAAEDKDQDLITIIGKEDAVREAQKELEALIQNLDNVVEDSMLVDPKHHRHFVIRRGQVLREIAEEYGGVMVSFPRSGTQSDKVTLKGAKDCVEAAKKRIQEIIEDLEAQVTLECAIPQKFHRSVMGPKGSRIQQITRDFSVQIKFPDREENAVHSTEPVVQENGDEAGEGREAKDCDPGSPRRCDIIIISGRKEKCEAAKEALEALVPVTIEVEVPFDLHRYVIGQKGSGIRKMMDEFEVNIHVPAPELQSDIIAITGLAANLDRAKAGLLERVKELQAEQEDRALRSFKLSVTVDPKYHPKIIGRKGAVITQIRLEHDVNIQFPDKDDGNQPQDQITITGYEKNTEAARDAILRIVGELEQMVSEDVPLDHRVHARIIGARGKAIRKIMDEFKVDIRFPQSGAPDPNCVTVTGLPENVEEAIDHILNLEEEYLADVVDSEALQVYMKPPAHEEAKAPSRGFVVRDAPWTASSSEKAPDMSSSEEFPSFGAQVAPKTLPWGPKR
Chain of UniProt P12314 (whole entry, unmodified, looked up): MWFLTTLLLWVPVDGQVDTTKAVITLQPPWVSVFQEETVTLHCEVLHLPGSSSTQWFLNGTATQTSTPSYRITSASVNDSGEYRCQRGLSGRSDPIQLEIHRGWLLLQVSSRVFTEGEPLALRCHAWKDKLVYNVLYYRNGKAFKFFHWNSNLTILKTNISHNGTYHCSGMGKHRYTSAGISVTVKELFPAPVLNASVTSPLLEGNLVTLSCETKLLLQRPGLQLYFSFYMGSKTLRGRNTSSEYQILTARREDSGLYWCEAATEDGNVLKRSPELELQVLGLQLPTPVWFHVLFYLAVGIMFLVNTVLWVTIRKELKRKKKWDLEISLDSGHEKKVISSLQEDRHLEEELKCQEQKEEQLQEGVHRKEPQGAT
Chain of UniProt P43124 (whole entry, looked up): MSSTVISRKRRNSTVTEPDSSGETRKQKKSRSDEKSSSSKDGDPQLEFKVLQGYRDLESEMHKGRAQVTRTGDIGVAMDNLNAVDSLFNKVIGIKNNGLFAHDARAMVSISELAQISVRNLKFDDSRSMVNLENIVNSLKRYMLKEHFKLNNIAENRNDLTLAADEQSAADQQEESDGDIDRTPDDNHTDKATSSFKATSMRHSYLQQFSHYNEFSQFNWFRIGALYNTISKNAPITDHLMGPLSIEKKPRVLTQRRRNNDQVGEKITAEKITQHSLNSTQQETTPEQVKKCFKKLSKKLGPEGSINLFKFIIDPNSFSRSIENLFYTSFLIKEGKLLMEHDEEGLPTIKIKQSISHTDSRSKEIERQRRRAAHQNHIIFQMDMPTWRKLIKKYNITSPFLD

Molecule	partner	assay	system	setting	scale	measurement	result
H3C1 N-terminal peptide, K14 crotonyl	KAT6A 194-323 (Homo sapiens, UniProt Q92794)	ITC		pH 7.5		ΔH	-18.8 kJ/mol
ING2 PHD finger (Arabidopsis thaliana)	histone H3 1-10, K4me3	ITC				molecule per partner	1.06 ± 0.01
DPSDYAEPMDAVVKPRNEEENIYSVPHDS (ARHGAP35 residues 1083-1111; pY1087/pY1105, N-acetyl, C-amide)	RASA1 174-444 C236S/C261S/C372S/C402S/R427Q (Homo sapiens, UniProt P20936)	ITC	peptide			molecule per partner	0.932 and 0.95 and 0.967
B1 (ALAS2 54-587)	POLDIP2 52-368 H225A (Homo sapiens, UniProt Q9Y2S7)	ALAS2 degradation by CLPXP			reference: wild-type POLDIP2, higher = faster degradation	relative degradation rate	< 50%
EGLN1 fragment	HIF1A NODD peptide 394-411, C-terminal amide (Homo sapiens)	BLI				kon	3000 M⁻¹ s⁻¹
ACPAGCMKNWSWPIWCTNK (bicyclic peptide; C-terminal amide/TATA scaffold, three cysteines cyclised)	NECTIN4	fluorescence polarisation	peptide			Ki	> 10000 nM
NSE4 (Saccharomyces cerevisiae, UniProt P43124)	NSE5 (Saccharomyces cerevisiae, UniProt Q03718)	cross-linking MS		hits only		interaction screen	cross-linked
B2	cyclic RGD peptide, disulfide-cyclized, aminocaproic acid, FITC	fluorescence polarisation		with: CaCl2 1 mM		EC50	4.4 nM
CFB (Homo sapiens, UniProt P00751)	FGB (Homo sapiens, UniProt P02675)	cross-linking MS		with: DSSO		cross-linked residues	K732 to K160
MBL-A mature, hydroxylysine, hydroxyproline in collagen (Rattus norvegicus, UniProt P19999)	C1R (Homo sapiens, UniProt P00736)	SPR		with: CaCl2 140 mM		koff	0.00384 s⁻¹
SRP14 (Homo sapiens, UniProt P37108)	SRP9 (Homo sapiens, UniProt P49458)	cross-linking MS	cells	with: BDP-NHP		cross-linked residues	K66 to K30
B3	MMP2 110-452 (Homo sapiens, UniProt P08253)	MMP-2 inhibition, inhibitor, Morrison tight-binding equation	designed binder			Ki	7 nM
DYNLRB1/DYNLL1/DYNLT1/DYNC1LI2/DYNC1I2/DYNC1H1 dynein-1 complex (Homo sapiens)	KASH5/NINL chimera KASH5 CC, NINL LIC-BD, HaloTag	pull-down				Ka	> 1.6e+06 M⁻¹
ADCYAP1 PACAP (Homo sapiens)	VIPR2 (Homo sapiens, UniProt P41587)	cAMP accumulation, antagonist	Cos7	VPAC2, with: PACAP-27		pKB	36.3 nM
EPHA2 fragment, auto-phosphorylated (Homo sapiens)	EFNA5 (Homo sapiens, UniProt P52803)	BLI		apparent		kon	24000 M⁻¹ s⁻¹
ACPFGCMKNWSWAIWCTNK (Bicycle 69 bicyclic peptide; C-terminal amide/TATA scaffold, three cysteines cyclised)	NECTIN4	fluorescence polarisation	peptide			Ki	> 10000 nM
ALB (Homo sapiens, UniProt P02768)	NLGN3 (Homo sapiens, UniProt Q9NZ94)	cross-linking MS		with: DSSO		cross-linked residues	K219 to K572
B4 (NOTCH1 1758-2126)	RBPJ 25-449 (Homo sapiens, UniProt Q06330)	ITC				ΔH	-79.5 kJ/mol

Molecule	partner	assay	system	setting	scale	measurement	result
ACTA1 (Gallus gallus, UniProt P68139)	MYH1 (Oryctolagus cuniculus, UniProt A0A5F9CQ93)	laser trap		with: ATP 100 µM		detachment rate without load	112 s⁻¹
Mcm2-7, DyLight 650 on Mcm6 N-terminus (Saccharomyces cerevisiae)	ORC CDK-phosphorylated, Orc2 and Orc6 (Saccharomyces cerevisiae)	FRET			reference: unphosphorylated ORC, higher = shorter lifetime	ORC-Mcm2-7 interaction lifetime shortening	2.5 fold
GLP-1/MC4 receptor agonist chimeric peptide, D-Ser position 2	GLP1R (Homo sapiens, UniProt P43220)	cAMP, agonist	HEK293	FRET biosensor, stably transfected		EC50	0.275 nM
HDLBP (Homo sapiens, UniProt Q00341)	DZIP3 (Homo sapiens, UniProt Q86Y13)	cross-linking MS	cells	with: iqPIR		cross-linked residues	K382 to K1061
SERPINA1 (Homo sapiens, UniProt P01009)	Thrombin mature, plasma-derived (Homo sapiens)	inhibition kinetics, amidolytic activity				second-order inhibition rate constant	40 M⁻¹ s⁻¹
FGA (Homo sapiens, UniProt P02671)	PTPN18 (Homo sapiens, UniProt Q99952)	cross-linking MS		with: DSSO		cross-linked residues	K448 to K177
KRT8 (Homo sapiens, UniProt P05787)	PDIA4 (Homo sapiens, UniProt P13667)	cross-linking MS	cells	with: iqPIR		cross-linked residues	K92 to K145
CBX3 (Homo sapiens, UniProt Q13185)	SUV39H1 catalytic domain, C-terminal truncation (Homo sapiens)	pull-down		1.5 µM, with: chaetocin 0.1 µM	higher = less binding	binding reduction	76%
B5 (gajB 1-494)	GajA 1-578 (Bacillus cereus, UniProt J8H9C1)	cryo-EM				GajB per GajA	1 GajB per GajA
FGB (Homo sapiens, UniProt P02675)	PLAA (Homo sapiens, UniProt Q9Y263)	cross-linking MS		with: DSSO		cross-linked residues	K295 to K179
LPPGAVPPGARFDPFGPIGT (PSMF1 232-251 (Homo sapiens, UniProt Q92530))	20S proteasome core particle (Homo sapiens, UniProt P28072)	β2 activity inhibition, inhibitor	peptide	10 nM, with: Boc-LRR-AMC		IC50	< 10000 nM
Trastuzumab IgG1, CSCS double cysteine mutant (Homo sapiens)	FCGR1A (Homo sapiens, UniProt P12314)	SPR				kon	590000 M⁻¹ s⁻¹
B6	NOTCH1 full length, on cells (UniProt P46531)	Notch1 reporter activation EC50	CHO-K1	24 h		adsorbed ligand amount	0.009 ng mm^-2
PES1 (Homo sapiens, UniProt O00541)	BOP1 (Homo sapiens, UniProt Q14137)	cross-linking MS	cells	with: iqPIR		cross-linked residues	K533 to K711
B7 (TNFSF4 51-183)	TNFRSF4 29-170 (Homo sapiens, UniProt P43489)	SPR				koff	0.061 s⁻¹
dnaE alpha , NLuc fusion A921L/M923L (Escherichia coli)	dnaN (Escherichia coli, UniProt P0A988)	BRET		in cells	reference: wild type signal, higher = more interaction	BRET increase	267%
FGG (Homo sapiens, UniProt P02679)	KIAA1210 (Homo sapiens, UniProt Q9ULL0)	cross-linking MS		with: DSSO		cross-linked residues	K196 to K1667
